Measured values gathered from unrelated publications.
A part holds a random share of what one study measured. Several values in a cell are separate wells, animals, samples, runs or records.
UniProt Q12851, sequence (whole entry, looked up): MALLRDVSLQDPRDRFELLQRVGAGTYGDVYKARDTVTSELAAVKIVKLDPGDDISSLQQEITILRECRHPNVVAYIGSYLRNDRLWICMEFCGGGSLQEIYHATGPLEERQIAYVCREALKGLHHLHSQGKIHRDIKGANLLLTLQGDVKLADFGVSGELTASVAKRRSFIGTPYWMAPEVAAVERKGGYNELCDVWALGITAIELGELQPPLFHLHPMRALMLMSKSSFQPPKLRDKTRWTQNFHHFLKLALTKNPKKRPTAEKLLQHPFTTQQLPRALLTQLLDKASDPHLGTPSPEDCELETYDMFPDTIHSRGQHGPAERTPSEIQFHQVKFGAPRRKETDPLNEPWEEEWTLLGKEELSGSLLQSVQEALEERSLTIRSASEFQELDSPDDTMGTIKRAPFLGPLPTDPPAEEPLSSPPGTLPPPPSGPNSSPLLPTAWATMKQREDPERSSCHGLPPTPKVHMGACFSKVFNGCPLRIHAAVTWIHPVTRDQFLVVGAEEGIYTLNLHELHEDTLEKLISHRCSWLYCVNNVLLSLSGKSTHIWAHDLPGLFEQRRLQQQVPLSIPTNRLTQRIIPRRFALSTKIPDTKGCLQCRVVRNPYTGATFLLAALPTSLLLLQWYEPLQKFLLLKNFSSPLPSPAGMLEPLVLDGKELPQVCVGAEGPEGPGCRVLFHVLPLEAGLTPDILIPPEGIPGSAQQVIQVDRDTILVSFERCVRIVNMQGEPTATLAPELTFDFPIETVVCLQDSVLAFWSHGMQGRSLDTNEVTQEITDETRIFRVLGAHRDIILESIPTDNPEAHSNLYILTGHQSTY
UniProt Q9HBH9, sequence (whole entry, looked up): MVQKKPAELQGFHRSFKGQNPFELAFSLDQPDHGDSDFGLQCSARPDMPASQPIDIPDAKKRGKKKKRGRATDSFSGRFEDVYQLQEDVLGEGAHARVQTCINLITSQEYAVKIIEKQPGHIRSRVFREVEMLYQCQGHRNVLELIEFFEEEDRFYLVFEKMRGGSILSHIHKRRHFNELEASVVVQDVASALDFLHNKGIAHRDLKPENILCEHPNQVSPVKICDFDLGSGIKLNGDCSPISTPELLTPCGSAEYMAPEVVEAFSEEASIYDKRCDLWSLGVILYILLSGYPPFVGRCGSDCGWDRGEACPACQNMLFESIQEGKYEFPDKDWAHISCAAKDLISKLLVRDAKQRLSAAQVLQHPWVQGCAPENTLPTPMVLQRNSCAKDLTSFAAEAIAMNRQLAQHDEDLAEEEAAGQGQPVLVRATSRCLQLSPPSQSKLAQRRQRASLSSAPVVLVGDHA
UniProt P68400, sequence (whole entry, looked up): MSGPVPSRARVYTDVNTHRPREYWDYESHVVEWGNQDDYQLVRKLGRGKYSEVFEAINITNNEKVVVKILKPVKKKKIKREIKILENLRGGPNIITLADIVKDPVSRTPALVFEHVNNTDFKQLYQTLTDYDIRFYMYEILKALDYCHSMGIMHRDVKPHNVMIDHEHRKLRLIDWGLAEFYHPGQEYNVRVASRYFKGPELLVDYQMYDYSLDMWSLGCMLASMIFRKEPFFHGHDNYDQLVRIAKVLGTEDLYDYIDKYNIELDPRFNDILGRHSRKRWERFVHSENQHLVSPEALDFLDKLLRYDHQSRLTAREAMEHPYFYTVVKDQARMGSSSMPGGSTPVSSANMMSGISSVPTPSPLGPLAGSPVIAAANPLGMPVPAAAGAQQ
UniProt Q13976, sequence (whole entry, looked up): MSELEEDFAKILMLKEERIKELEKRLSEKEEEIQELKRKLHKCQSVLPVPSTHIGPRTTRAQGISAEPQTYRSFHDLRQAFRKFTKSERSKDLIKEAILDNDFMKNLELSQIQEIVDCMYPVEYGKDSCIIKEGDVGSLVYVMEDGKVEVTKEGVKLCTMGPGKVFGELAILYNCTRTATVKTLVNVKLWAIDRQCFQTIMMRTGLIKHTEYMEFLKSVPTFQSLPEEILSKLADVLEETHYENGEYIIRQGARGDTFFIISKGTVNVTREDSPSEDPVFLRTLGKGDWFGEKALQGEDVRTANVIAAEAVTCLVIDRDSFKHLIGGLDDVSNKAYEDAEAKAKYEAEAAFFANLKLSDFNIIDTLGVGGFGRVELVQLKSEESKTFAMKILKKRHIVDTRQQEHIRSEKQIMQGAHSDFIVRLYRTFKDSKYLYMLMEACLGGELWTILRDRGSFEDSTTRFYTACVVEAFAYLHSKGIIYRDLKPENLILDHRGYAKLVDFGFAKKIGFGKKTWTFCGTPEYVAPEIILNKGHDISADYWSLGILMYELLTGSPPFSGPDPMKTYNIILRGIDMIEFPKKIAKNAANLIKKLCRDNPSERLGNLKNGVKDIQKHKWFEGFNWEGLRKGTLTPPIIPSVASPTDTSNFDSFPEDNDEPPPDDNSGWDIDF
UniProt Q9Y3S1, sequence (whole entry, looked up): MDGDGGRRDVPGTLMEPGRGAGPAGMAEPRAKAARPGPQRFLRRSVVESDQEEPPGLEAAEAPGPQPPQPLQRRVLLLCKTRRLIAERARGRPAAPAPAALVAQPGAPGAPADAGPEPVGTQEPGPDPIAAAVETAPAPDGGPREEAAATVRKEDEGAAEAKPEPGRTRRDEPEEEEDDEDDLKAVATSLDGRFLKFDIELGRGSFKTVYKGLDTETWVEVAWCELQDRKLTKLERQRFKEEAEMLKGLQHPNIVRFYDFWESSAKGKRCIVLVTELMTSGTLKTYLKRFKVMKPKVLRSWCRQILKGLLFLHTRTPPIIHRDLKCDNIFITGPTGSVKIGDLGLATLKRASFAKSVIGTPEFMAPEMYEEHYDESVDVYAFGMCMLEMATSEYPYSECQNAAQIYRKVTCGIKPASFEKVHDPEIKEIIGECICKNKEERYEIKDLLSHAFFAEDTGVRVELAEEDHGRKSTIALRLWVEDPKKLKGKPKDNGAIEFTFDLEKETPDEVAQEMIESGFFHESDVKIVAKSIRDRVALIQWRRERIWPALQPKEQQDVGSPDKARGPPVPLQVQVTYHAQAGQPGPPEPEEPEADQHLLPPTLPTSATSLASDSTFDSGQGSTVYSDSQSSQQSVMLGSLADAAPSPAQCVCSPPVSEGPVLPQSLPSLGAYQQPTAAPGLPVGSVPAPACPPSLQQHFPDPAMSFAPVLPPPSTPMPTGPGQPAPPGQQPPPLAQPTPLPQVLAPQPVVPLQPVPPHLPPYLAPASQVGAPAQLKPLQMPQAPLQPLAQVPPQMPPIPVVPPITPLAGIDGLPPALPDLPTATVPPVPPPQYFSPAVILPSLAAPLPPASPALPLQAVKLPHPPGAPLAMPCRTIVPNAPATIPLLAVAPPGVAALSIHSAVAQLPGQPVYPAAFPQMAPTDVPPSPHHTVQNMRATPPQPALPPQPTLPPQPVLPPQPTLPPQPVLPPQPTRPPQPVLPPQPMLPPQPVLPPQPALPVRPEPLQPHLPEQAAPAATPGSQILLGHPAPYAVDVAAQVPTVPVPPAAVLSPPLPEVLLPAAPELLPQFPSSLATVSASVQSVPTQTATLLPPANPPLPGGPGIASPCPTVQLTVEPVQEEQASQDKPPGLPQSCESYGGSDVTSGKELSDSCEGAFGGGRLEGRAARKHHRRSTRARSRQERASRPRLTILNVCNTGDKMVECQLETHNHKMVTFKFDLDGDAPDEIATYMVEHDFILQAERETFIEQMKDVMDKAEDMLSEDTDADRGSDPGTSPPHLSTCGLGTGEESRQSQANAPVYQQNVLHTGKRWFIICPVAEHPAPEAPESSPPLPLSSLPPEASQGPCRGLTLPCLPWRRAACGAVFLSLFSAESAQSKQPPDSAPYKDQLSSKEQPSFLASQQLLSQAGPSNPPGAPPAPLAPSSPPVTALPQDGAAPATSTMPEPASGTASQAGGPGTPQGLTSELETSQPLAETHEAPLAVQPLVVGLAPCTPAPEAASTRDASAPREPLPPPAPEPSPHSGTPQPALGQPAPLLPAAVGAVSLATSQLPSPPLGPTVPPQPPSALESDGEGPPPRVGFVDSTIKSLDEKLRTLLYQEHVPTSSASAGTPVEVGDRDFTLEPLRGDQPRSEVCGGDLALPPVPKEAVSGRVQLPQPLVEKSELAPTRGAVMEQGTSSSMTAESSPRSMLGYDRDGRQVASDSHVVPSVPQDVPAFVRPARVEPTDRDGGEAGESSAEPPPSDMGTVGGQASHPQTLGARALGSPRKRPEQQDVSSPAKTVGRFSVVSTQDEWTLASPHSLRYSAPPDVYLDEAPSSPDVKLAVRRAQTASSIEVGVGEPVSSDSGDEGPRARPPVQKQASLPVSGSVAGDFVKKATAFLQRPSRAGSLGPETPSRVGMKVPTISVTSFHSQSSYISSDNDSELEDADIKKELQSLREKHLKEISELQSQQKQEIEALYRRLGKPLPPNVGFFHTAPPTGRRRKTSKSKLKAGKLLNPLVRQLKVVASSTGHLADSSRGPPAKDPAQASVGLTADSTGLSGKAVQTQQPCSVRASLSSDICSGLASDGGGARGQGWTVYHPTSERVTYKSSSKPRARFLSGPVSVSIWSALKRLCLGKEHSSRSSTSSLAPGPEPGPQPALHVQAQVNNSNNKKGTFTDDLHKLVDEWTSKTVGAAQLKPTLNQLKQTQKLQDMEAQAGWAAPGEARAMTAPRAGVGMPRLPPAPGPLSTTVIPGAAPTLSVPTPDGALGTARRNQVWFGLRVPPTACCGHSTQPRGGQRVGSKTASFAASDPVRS
UniProt Q9NWZ3, sequence (whole entry, looked up): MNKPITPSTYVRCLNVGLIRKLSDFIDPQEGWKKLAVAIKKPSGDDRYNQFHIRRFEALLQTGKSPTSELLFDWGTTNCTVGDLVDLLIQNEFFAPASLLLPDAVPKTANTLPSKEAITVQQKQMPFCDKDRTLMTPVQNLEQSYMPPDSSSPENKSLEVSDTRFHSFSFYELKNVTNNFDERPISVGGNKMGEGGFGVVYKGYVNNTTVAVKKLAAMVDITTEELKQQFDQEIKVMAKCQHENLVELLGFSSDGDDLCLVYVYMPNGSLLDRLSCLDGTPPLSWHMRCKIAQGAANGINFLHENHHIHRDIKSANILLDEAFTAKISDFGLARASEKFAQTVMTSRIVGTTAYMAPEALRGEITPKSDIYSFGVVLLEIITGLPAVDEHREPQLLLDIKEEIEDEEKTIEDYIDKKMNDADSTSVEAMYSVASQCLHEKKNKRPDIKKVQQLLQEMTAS

Study 1
Cell line: HEK-293T/ACE2
Concentration: concentration not given
Time: 16 (unit not given)
Reference: vehicle
| SMILES | viability |
| --- | --- |
| c1ccc(CN(CC2=NCCN2)c2ccccc2)cc1 | 96.8% |
| CC(C)(C)NC(=O)[C@H]1CC[C@H]2[C@@H]3CC[C@H]4NC(=O)C=C[C@]4(C)[C@H]3CC[C@]12C | 102% |
| O=C(OCc1ccccc1)c1ccccc1 | 97.8% |
| CCCN(CCC)S(=O)(=O)c1ccc(C(=O)O)cc1 | 97.4% |
| CC(C)(C#N)c1cc(Cn2cncn2)cc(C(C)(C)C#N)c1 | 99.5% |
| C#C[C@]1(O)CC[C@H]2[C@@H]3CCC4=C(CCC(=O)C4)[C@H]3CC[C@@]21C | 103% |
| CCCCC[C@H](O)/C=C/[C@H]1[C@H](O)CC(=O)[C@@H]1CCCCCCC(=O)O | 102% |
| CN1CCN2c3ncccc3Cc3ccccc3C2C1 (stereo not drawn) | 102% |
| Clc1ccc(C(Cn2ccnc2)OCc2csc3c(Cl)cccc23)c(Cl)c1 (stereo not drawn) | 96.7% |
| Cc1ccc(-c2cc(C(F)(F)F)nn2-c2ccc(S(N)(=O)=O)cc2)cc1 | 99.2% |
| CCCCC(CC)COC(=O)C(C#N)=C(c1ccccc1)c1ccccc1 (stereo not drawn) | 93.7% |
| CCCc1nn(C)c2c(=O)[nH]c(-c3cc(S(=O)(=O)N4CCN(C)CC4)ccc3OCC)nc12 | 99.4% |

Study 2
Compound: COc1ccc2c(c1)/C(=C/c1cnc[nH]1)C(=O)N2
Effect on: enzyme activity
Mode: inhibitor
Concentration: 0.5 µM
Reference: control
| target | remaining activity [%] |
| --- | --- |
| BTK (Homo sapiens, UniProt Q06187) | 101 |
| MAPK13 (Homo sapiens, UniProt O15264) | 102 |
| IRAK4 (Homo sapiens, UniProt Q9NWZ3) | 92.2 |
| LRRK2 (Homo sapiens, UniProt Q5S007) | 27.9 |
| CHEK1 (Homo sapiens, UniProt O14757) | 76 |
| MAPK12 (Homo sapiens, UniProt P53778) | 95.5 |
| AKT3 (Homo sapiens, UniProt Q9Y243) | 101 |
| LYN (Homo sapiens, UniProt P07948) | 88.3 |
| PRKG1 (Homo sapiens, UniProt Q13976) | 99 |
| WNK2 (Homo sapiens, UniProt Q9Y3S1) | 102 |
| STK38 (Homo sapiens, UniProt Q15208) | 86.2 |
| MAP4K2 (Homo sapiens, UniProt Q12851) | 42.6 |
| CSNK2A1 (Homo sapiens, UniProt P68400) | 67.8 |
| KIT (Homo sapiens, UniProt P10721) | 84.1 |
| NEK4 (Homo sapiens, UniProt P51957) | 96 |
| MKNK2 (Homo sapiens, UniProt Q9HBH9) | 84.9 |
| MAP3K10 (Homo sapiens, UniProt Q02779) | 92.9 |
| CSNK1A1 (Homo sapiens, UniProt P48729) | 86.4 |
| MAP2K6 (Homo sapiens, UniProt P52564) | 90.1 |
| PRKCI (Homo sapiens, UniProt P41743) | 96.9 |
| PRKCD (Homo sapiens, UniProt Q05655) | 95.5 |
| EPHA5 (Homo sapiens, UniProt P54756) | 86.2 |
| PLK2 (Homo sapiens, UniProt Q9NYY3) | 95.2 |
| Cyclin-dependent kinase 9, with cyclin T1 (CDK9, Homo sapiens, UniProt P50750) | 67.4 |

Study 3
Organism: Sarcocystis neurona
Effect on: parasite growth
Concentration: 10 µM
Notes: secondary screen
| SMILES | inhibition [%] |
| --- | --- |
| C[C@]12CC[C@H]3[C@@H](CCC4=CC(=O)CC[C@@H]43)[C@@H]1CC[C@@H]2O | 0.5 |
| C[C@]12CCC(=O)C[C@@H]1CC[C@@H]1[C@@H]2CC[C@@]2(C)[C@H]1CC[C@]2(C)O | 0.249 |
| CCCCC/C=C\C/C=C\C/C=C\C/C=C\CCCC(=O)Nc1ccc(O)cc1 | -2.7 |
| Oc1ccc2c3c1O[C@H]1[C@@H](O)CC[C@@]4(O)[C@@H](C2)N(CC2CCC2)CC[C@]314 | -47.1 |
| O=C(O)C(Cl)Cl | -20.8 |

Study 4
SMILES: CCOc1ccc(Nc2c3c(nc4ccccc24)CCC3)cc1
Organism: Leishmania donovani
| assay | system | setting | inhibition |
| --- | --- | --- | --- |
| parasite growth | DD8 amphotericin B-resistant, promastigotes | 0.0066 µM | 1% and 6% and 2% |
| parasite killing | DD8, promastigotes | 0.16 µM, 24 h | 9% and 13% |
| parasite growth |  | 40 µM, intracellular, amastigote | 100% |
| parasite growth | DD8 amphotericin B-resistant, intracellular amastigotes | 0.4 µM | 18% and 11% and 25% and 15% and 16% and 14% |
| parasite growth |  | 0.4 µM, intracellular, amastigote | 1% |
| parasite growth | DD8 amphotericin B-resistant, promastigotes | 0.33 µM | 5% and 12% and 4% and 9% and 1% |

Study 5
Structure (SMILES): O=C1CCC(N2Cc3c(ccc4c3OCC43CCN(Cc4ccccc4)CC3)C2=O)C(=O)N1 (stereo not drawn)
Matrix: plasma
Route: oral
Dose: 3.0 mg/kg
| system | oral bioavailability |
| --- | --- |
| mouse ICR male | 108% |
| male ICR mice | 104% and 86.3% and 134% |
| ICR mouse, male | 86.3% and 134% and 104% |

Further values, each from its own experiment
| SMILES | target | assay | setting | endpoint | value |
| --- | --- | --- | --- | --- | --- |
| Cc1c(N2CCNCC2)nc2ccc(Br)cc2c1C(=O)NC[C@H](CCC(=O)O)c1ccccc1Cl | 5-hydroxytryptamine receptor 7 (HTR7, Homo sapiens, UniProt P34969) | ligand displacement | 10 µM | inhibition | 13% |

A few entries again (study 1):
| SMILES | viability |
| --- | --- |
| Cc1ccc(-c2cc(C(F)(F)F)nn2-c2ccc(S(N)(=O)=O)cc2)cc1 | 99.2% |
| CN1CCN2c3ncccc3Cc3ccccc3C2C1 (stereo not drawn) | 102% |
| CCCCC(CC)COC(=O)C(C#N)=C(c1ccccc1)c1ccccc1 (stereo not drawn) | 93.7% |
| C#C[C@]1(O)CC[C@H]2[C@@H]3CCC4=C(CCC(=O)C4)[C@H]3CC[C@@]21C | 103% |
| CCCc1nn(C)c2c(=O)[nH]c(-c3cc(S(=O)(=O)N4CCN(C)CC4)ccc3OCC)nc12 | 99.4% |
